Measured values collected from several papers.
Compare with care: the assays were run in different laboratories. Numbers after ± are the reported error.
Chain of UniProt P05177 (whole entry, looked up): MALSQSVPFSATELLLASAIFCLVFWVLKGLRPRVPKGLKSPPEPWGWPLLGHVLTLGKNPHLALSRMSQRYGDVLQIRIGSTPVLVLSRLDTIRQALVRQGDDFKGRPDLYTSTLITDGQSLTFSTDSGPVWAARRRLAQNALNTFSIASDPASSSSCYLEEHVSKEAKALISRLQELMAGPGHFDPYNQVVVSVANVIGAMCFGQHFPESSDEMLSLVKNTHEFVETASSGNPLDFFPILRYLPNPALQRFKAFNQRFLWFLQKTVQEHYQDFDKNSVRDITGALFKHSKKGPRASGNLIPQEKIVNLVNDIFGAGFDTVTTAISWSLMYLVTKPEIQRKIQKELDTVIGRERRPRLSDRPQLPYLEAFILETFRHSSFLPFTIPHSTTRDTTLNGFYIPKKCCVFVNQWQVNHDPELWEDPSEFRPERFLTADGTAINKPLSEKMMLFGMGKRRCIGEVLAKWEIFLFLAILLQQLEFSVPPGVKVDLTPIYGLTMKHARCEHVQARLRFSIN

| Structure (SMILES) | tested on | test | system | setting | scale | endpoint | value |
| --- | --- | --- | --- | --- | --- | --- | --- |
| COC(=O)C(c1ccccc1Cl)N1CCC(SCC(=O)c2cccc(OC)c2)C(=CC(=O)O)C1 (mixture of isomers) |  | HPLC-MS/MS | feline EDTA plasma | 100 ng/mL, 6 h, -80 °C, storage stability |  | deviation from nominal | 1% |
| CC(=O)N[C@@H](CC(N)=O)C(=O)NCC(=O)N[C@@H](C)C(=O)N[C@@H](C)C(N)=O |  | 1H NMR | sodium phosphate buffer 50 mM | pH 5.1, 55 °C |  | half-life of Asn form | 203 h |
| CC(C)[C@H](NC(=O)CNC(=O)[C@H](CCC(N)=O)NC(=O)[C@H](C)N)C(=O)O |  | LC-MS/MS | human, plasma | intravenous, 20 mg/kg three times daily, day 3, first dose, 10 min infusion, geometric mean |  | AUC(0-inf) | 566 ng·h/mL |
| Cn1c(=O)oc2ccc(-c3ccc(CC(C#N)NC(=O)C4CNCCCO4)c(F)c3)cc21 (stereo not shown) |  |  | human | oral, 10 mg once daily, TEAE, multiple ascending dose |  | lymphadenopathy incidence | 0% |
| C[C@H](NC(=O)COC(=O)[C@H](C)NC(=O)CO)C(=O)O |  |  | water | pH 6, 65 °C |  | depolymerization half-life | 0.17 h |
| O=C(CCc1ccc(CNC(C(=O)OC2CCCC2)C2CCCCC2)cn1)NO (stereo not shown) |  |  | healthy male humans | oral, 40 mg once daily, 7 days, median | baseline: day 7 over day 1 | accumulation ratio AUC | 1.41 |
| CC(C)(Sc1ccncc1-c1ccc(C#N)c2ccccc12)C(=O)OC1OC(C(=O)O)C(O)C(O)C1O (stereo not shown) |  |  | adult men, plasma | oral, 15 mg verinurad, moderate renal impairment | baseline: normal renal function | AUC(0-inf) increase | 213% |
| Cc1ccc(/N=N/c2c(O)ccc3ccccc23)c(C)c1 |  |  | rat whole blood extract | 0.5 µg/L, 30 days, -20 °C, long-term storage |  | measured concentration | 0.492 µg/L |
| COc1ccc(/C=C/c2ccc(-c3ccc(C)cn3)nc2)cc1 |  |  | hexanes | together with: quinine bisulfate reference |  | fluorescence quantum yield | 0.6 |
| N=C(N)NCCC[C@@H]1NC(=O)[C@H](Cc2c[nH]c3ccccc23)NC(=O)[C@@H](CC2CCCCC2)NC(=O)[C@@H]2CCCN2C(=O)[C@@H](NC(=O)CCc2ccccc2)CCCNC1=O |  |  | C57BL/6J mouse, plasma plasma | oral, 1 mg/kg single dose |  | MRT(0-inf) | 0.907 h |
| CCCC[C@H](NC(=O)CNC(=O)CNC(=O)CN1CCN(CC(=O)O)CCN(CC(=O)O)CCN(CC(=O)O)CC1)C(=O)N[C@H]1CC(=O)NCCCC[C@@H](C(N)=O)NC(=O)[C@H](Cc2c[nH]c3ccccc23)NC(=O)[C@H](CCCNC(=N)N)NC(=O)[C@@H](Cc2ccccc2)NC(=O)[C@H](Cc2c[nH]cn2)NC1=O [lutetium-177 labelled] |  |  | C57 mouse, female, pancreas | intravenous, 0.037 MBq, 24 h |  | tissue uptake | 0.2 ± 0.11 %ID/g |
| CCCC(CCC)NC(=O)c1ccc(OC2OC(C(=O)O)C(O)C(O)C2O)c(O)c1 (stereo not shown) |  |  | male Sprague-Dawley rat, plasma | oral, 200 mg/kg of parent drug |  | Tmax | 24 h |
| CC[C@H](C)[C@H](NC(=O)[C@H](Cc1ccccc1)NC(=O)[C@H](CC(=O)O)NC(=O)[C@@H]1CNC(=O)NCCCC[C@H](NC(=O)[C@H](CC(C)C)NC(=O)[C@H](CCCNC(=N)N)NC(=O)[C@H](CCSC)NC(=O)[C@H](C)N)C(=O)N[C@@H](CCCCN)C(=O)N[C@@H](Cc2ccccc2)C(=O)N[C@@H](Cc2ccccc2)C(=O)N1)C(=O)N[C@@H](CC(C)C)C(=O)N[C@@H](CCC(N)=O)C(=O)N[C@@H](CCCNC(=N)N)C(=O)N[C@@H](CCCCN)C(=O)N[C@@H](CCCCN)C(=O)O |  | circular dichroism | 20% TFE in PBS | 200 µM, pH 7.4, 25 °C |  | helicity | 33.1% |
| CCN(CC)CCCSC(=S)N1CCN(C(=O)/C=C/c2coc3cc(F)ccc3c2=O)CC1 | tomato spotted wilt virus | viral infection, half-leaf method | Nicotiana glutinosa | 500 µg/mL |  | curative effect | 56.2 ± 6.1% |
| C=CC(=O)Nc1cc(Nc2nccc(-c3cn(C)c4ccccc34)n2)c(OCC(F)(F)F)nc1N(C)CCN(C)C | Cytochrome P450 1A2 (CYP1A2, Homo sapiens, UniProt P05177) | enzyme activity, inhibitor | human, liver microsomes | 33.3 µM |  | activity vs control | 78.3% |
| CN[C@@H]1[C@H](O)[C@H](NC)[C@H]2O[C@]3(O)[C@H](O[C@@H]2[C@H]1O)O[C@H](C)C[C@@]3(O)CNCc1ccc(Cl)cc1 |  |  | rat | intravenous, 10 mg/kg |  | volume of distribution | 1.45 L/kg |
| CC[C@H](C)[C@H](NC(=O)[C@H](N)Cc1ccc(O)cc1)C(=O)N[C@H]1CSSC[C@@H](C(=O)N(C)[C@H](C(N)=O)[C@@H](C)CC)NC(=O)[C@H](CCCNC(=N)N)NC(=O)[C@H](Cc2c[nH]cn2)NC(=O)[C@H](C)NC(=O)CN(C)C(=O)[C@H](Cc2c[nH]c3ccccc23)NC(=O)[C@H](CC(=O)O)NC(=O)[C@H](CCC(N)=O)NC(=O)[C@H](Cc2cn(C)c3ccccc23)NC(=O)[C@H](C(C)C)NC1=O |  | UPLC-ESI-MS | human plasma | 3.58 µg/mL, 48 h, 25 °C, bench-top after SPE |  | recovery | 99.7 ± 0.3% |
| CC(=O)N[C@H](CSSC[C@H](N)C(=O)O)C(=O)N[C@H](C)C(=O)N[C@H](CCCNC(=N)N)C(=O)N[C@H](CCCNC(=N)N)C(=O)N[C@H](CCCNC(=N)N)C(=O)N[C@H](C)C(=O)N[C@H](CCCNC(=N)N)C(N)=O |  | ELISA | healthy male human, serum | all dose levels |  | anti-drug antibodies | not detected |
| C[C@H]1Nc2nc(=O)c3[nH]ccc3n2Cc2ccc(Cl)cc21 |  |  | dog, both sexes, plasma | 100 mg/kg | baseline: dog over human 10 mg | exposure ratio | not detected |

| Structure (SMILES) | tested on | test | system | setting | scale | endpoint | value |
| --- | --- | --- | --- | --- | --- | --- | --- |
| CC(=O)N[C@H](CCNC(=O)c1cc(NC(=O)c2cc(NC(=O)c3cc(NC(=O)c4nccn4C)cn3C)cn2C)cn1C)C(=O)Nc1cn(C)c(C(=O)Nc2cc(C(=O)Nc3cc(C(=O)Nc4cc(C(=O)NCCCN(C)CCCN[14C](=O)c5cccc([14C](=O)O)c5)n(C)c4)n(C)c3)n(C)c2)n1 |  |  | NSG male mice, LNCaP xenograft, LNCaP tumour | intraperitoneal, 20 nmol per animal, 24 h | baseline: LNCaP tumour over U-251 tumour | tissue concentration ratio | 2.3 fold |
| COc1cc(C)c(Cc2ccc(O)cc2)cc1[C@@H]1S[C@H](CO)[C@@H](O)[C@H](O)[C@H]1O |  |  | Japanese T2DM patients, plasma | 1 mg luseogliflozin, day 1, once daily |  | Cmax | 1.61 ± 0.383 ng/mL |
| CC(C)c1cnc(-c2cc(Cl)ccc2F)cc1Nc1ccncc1C(=O)NC(CO)CO |  |  | patients, phase I monotherapy | oral, dose not given, grade 4 |  | patients with ALT increase | 0% |
| O=Cc1c(O)ccc2ccccc12 | HUVEC | RNA sequencing, item: PDGFB |  | 75 µM, 24 h | baseline: DMSO | log2 fold change | -3.32 |
| N#Cc1cnc2cc(OCC3CCNCC3)c(F)cc2c1Nc1cc(F)c(OCc2cccc(Cl)n2)cc1Cl |  |  | male Sprague-Dawley rat, plasma | oral, 30 mg/kg |  | MRT | 6.74 h |
| CCCCSC(=S)N1CCN(C(=O)/C=C/c2coc3ccccc3c2=O)CC1 | tomato spotted wilt virus | viral infection, half-leaf method | Nicotiana glutinosa | 500 µg/mL |  | protective effect | 43.3 ± 2.1% |
| [64Cu+2].c1ccc(CNCc2ccc(CN3CCCN4CCNCCCN(CC4)CC3)cc2)nc1 | CXCR4 |  | NOD/SCID mouse, U87 and U87-stb-CXCR4 xenografts, bladder | iv, 90 min, no blocking dose, ex vivo |  | tissue uptake | 1.11 ± 0.07 %ID/g |
| CN1C(=O)[C@@H](Cc2ccc(O)cc2)NC(=O)CNC(=O)[C@H](Cc2ccc3ccccc3c2)NC(=O)[C@H](CCCNC(=N)N)NC(=O)[C@H]1CCCNC(=O)c1ccc(CNC(=O)CN2CCN(CC(=O)O)CCN(CC(=O)O)CCN(CC(=O)O)CC2)cc1 [gallium-68 labelled] |  | extrapolated to adult male | C57BL/6 mice, brain |  |  | absorbed dose coefficient | 0.00682 mGy/MBq |
| CCCC[C@H](NC(=O)CNC(=O)CNC(=O)CN1CCN(CC(=O)O)CCN(CC(=O)O)CCN(CC(=O)O)CC1)C(=O)N[C@H]1CC(=O)NCCCC[C@@H](C(N)=O)NC(=O)[C@H](Cc2c[nH]c3ccccc23)NC(=O)[C@H](CCCNC(=N)N)NC(=O)[C@@H](Cc2ccccc2)NC(=O)[C@H](Cc2c[nH]cn2)NC1=O [copper-64 labelled] |  |  | C57 mouse B16/F1 melanoma, kidneys | 24 h |  | tissue uptake | 5.39 ± 0.42 %ID/g |
| CC(=O)OC(CCl)Cn1cncc1[N+](=O)[O-] (stereo not shown) | Salmonella enterica serovar Typhimurium | Ames test, Bernstein slope | TA1535 |  |  | mutagenic potency | 0.51 ± 0.07 revertants/µg |
| O=C(O[C@@H]1Cc2c(O)cc(O)cc2O[C@@H]1c1cc(O)c(O)c(O)c1)c1cc(O)c(O)c(O)c1 |  | methylation, substrate | human liver cytosol | 10 min, pH 7.4 |  | Km | 0.17 ± 0.04 µM |
| O=c1c2cc([N+](=O)[O-])ccc2n(CCN2CCCC2)n1Cc1ccccc1 |  | resazurin | peritoneal macrophages, BALB/c mice | 48 h, 10% FBS |  | CC50 | 170 ± 21.3 µM |
| [64Cu+2].c1cnc(CNCc2ccc(CN3CCCN4CCNCCCN(CC4)CC3)cc2)nc1 | CXCR4 |  | NOD/SCID mouse, U87 and U87-stb-CXCR4 xenografts, lungs | iv, 30 min, ex vivo |  | tissue uptake | 10.7 ± 1.06 %ID/g |
| CNC(=O)N[C@]1(C)CCC[C@@]2(C)C3CC[C@@]4(C)C[C@]3(CCC21)CC4=O (single isomer, unassigned) |  |  | Sprague-Dawley rat, male, plasma | intravenous, 2 mg/kg |  | volume of distribution at steady state | 0.63 ± 0.032 L |
| CC[C@H](C)[C@H](NC(=O)[C@H](CCCCN)NC(=O)[C@H](CS)NC(=O)[C@H](CC(N)=O)NC(=O)[C@H](C)NC(=O)[C@H](CCCNC(=N)N)NC(=O)[C@H](CCCNC(=N)N)NC(=O)[C@H](CC(N)=O)NC(=O)[C@H](CCCNC(=N)N)NC(=O)[C@@H](NC(=O)[C@H](CCCNC(=N)N)NC(=O)[C@H](CS)NC(=O)[C@H](CO)NC(=O)[C@@H](NC(=O)[C@H](CCC(N)=O)NC(=O)[C@H](CS)NC(=O)[C@H](CCCCN)NC(=O)[C@@H](N)CCCNC(=N)N)[C@@H](C)CC)[C@@H](C)CC)C(=O)N[C@@H](CO)C(=O)N[C@@H](CS)C(=O)N[C@@H](CC(N)=O)C(=O)O |  | LC/MS | PBS | 0.1 mg/mL | baseline: LC peak area | two-disulfide form | 46% |
| CCC(=O)N(C)c1ccc(Cl)c(Cl)c1 | CHO-WBL |  |  | 0.032 mg/mL, 3 h, without S9 activation |  | cells with multiple aberrations | 0% |
| CN1CCC[C@]1(C)/C=C/S(=O)(=O)NC(=O)Nc1c2c(cc3c1CCC3)CCC2 |  |  | human, urine | oral, 400 mg single dose |  | amount recovered in urine | 201 mg |
| CCc1nc(N)nc(N)c1C#C[C@H](C)c1cc(-c2cc(C)nc(C)c2)ccc1Cl |  |  | mouse, plasma | oral, 16 mg/kg |  | oral bioavailability | 18.6% |

Repeated from above:
| Structure (SMILES) | tested on | test | system | setting | scale | endpoint | value |
| --- | --- | --- | --- | --- | --- | --- | --- |
| C[C@H]1Nc2nc(=O)c3[nH]ccc3n2Cc2ccc(Cl)cc21 |  |  | dog, both sexes, plasma | 100 mg/kg | baseline: dog over human 10 mg | exposure ratio | not detected |
| CC(=O)N[C@H](CCNC(=O)c1cc(NC(=O)c2cc(NC(=O)c3cc(NC(=O)c4nccn4C)cn3C)cn2C)cn1C)C(=O)Nc1cn(C)c(C(=O)Nc2cc(C(=O)Nc3cc(C(=O)Nc4cc(C(=O)NCCCN(C)CCCN[14C](=O)c5cccc([14C](=O)O)c5)n(C)c4)n(C)c3)n(C)c2)n1 |  |  | NSG male mice, LNCaP xenograft, LNCaP tumour | intraperitoneal, 20 nmol per animal, 24 h | baseline: LNCaP tumour over U-251 tumour | tissue concentration ratio | 2.3 fold |
| COc1cc(C)c(Cc2ccc(O)cc2)cc1[C@@H]1S[C@H](CO)[C@@H](O)[C@H](O)[C@H]1O |  |  | Japanese T2DM patients, plasma | 1 mg luseogliflozin, day 1, once daily |  | Cmax | 1.61 ± 0.383 ng/mL |
